Measured values pooled from the literature.
Numbered parts are unrelated; each lists some results of a single study.

Series 1
Target: Prothrombin, mature alpha-thrombin (F2, Homo sapiens, UniProt P00734)
Method: aptamer microarray, sandwich
Molecule type: DNA with 2'F-ANA
Matrix: in vitro
Tested at: 200 nM
Notes: whole 15-mer aptamer, many near background
With: Cy3 exosite-II aptamer, 400 nM
Reading: higher = stronger binding
Sequence: GGTTGGTGTGGTTGG
| Modification | mean fluorescence intensity [a.u.] |
| --- | --- |
| 2'F-ANA at 3 5 8 9 10 11 13 14 | 54.5 |
| 2'F-ANA at 5 6 7 8 9 11 12 13 14 15 | 156 |
| 2'F-ANA at 2 3 4 6 8 10 11 12 13 | 191 |
| 2'F-ANA at 2 6 9 11 13 14 15 | 115 |
| 2'F-ANA at 1 2 3 7 9 10 13 | 65.2 |
| 2'F-ANA at 1 4 6 7 9 14 | 63.3 |
| 2'F-ANA at 1 2 3 4 6 12 | 301 |
| 2'F-ANA at 1 2 6 9 10 12 15 | 140 |
| 2'F-ANA at 2 3 4 6 7 12 | 843 |
| 2'F-ANA at 3 4 5 6 8 9 11 | 80 |
| 2'F-ANA at 2 4 7 8 9 11 14 15 | 90 |
| 2'F-ANA at 1 5 8 10 12 13 15 | 50.7 |
| 2'F-ANA at 2 4 5 7 10 11 12 13 15 | 49.7 |
| 2'F-ANA at 4 5 7 8 9 11 12 14 15 | 48.1 |
| 2'F-ANA at 2 5 8 9 10 12 13 14 15 | 46.5 |
| 2'F-ANA at 1 4 7 9 12 13 | 159 |
| 2'F-ANA at 1 2 4 7 8 10 14 | 45.6 |
| 2'F-ANA at 2 3 4 5 8 9 11 12 13 15 | 95.3 |

Series 2
Target: Hepatocyte nuclear factor 3-alpha (Foxa1, Mus musculus, UniProt P35582, residues 1-468, full length assumed)
Method: EMSA with sequencing
Molecule type: double-stranded DNA, one strand shown
Matrix: in vitro
Tested at: 10 and 20 nM
Notes: whole designed probe, mean of two concentrations, ends assumed
Relative to: negative control set to 0
Reading: higher = stronger binding
Target sequence (chain): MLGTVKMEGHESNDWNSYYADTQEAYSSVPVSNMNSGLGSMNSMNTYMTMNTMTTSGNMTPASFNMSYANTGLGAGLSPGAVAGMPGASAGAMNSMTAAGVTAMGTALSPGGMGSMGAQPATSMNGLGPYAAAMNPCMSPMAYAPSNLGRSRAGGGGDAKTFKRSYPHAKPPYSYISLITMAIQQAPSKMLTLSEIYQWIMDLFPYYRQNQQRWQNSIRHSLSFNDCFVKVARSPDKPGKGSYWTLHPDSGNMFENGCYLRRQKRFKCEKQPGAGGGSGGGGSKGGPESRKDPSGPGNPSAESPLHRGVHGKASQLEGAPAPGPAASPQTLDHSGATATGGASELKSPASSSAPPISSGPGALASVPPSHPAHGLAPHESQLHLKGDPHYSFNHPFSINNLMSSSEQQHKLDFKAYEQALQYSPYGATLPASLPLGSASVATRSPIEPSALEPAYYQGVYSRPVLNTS
| Sequence | normalised bound fraction |
| --- | --- |
| GTGAGCGGTGCCCATTGATGGGGAACAGACTGGCTGCCCGGCTGGAAGGTGGGGCCCTGGCACGCGAGGACCTCATGTGTGGAGGCACTGGCTTGGGGGGTGCTCCCAGTGGCTCTAGAGTCAACATGACAGGCATCGAATGGCTCCTGTTTCTCTGGCAGAGTTGGGGCAGAGCCAGGCTTGGCCACGCTGGGCTCTAAGGGGCTGTCATTTTGCCCATTTCACTGGGATCGTGGGGAC | 0.0934 ratio |
| GTGAGCGGTGCCCATTGATGGGGAACAAGCTTCAAATTTTTTATTAGGTTTCACAATGCATTTCTAGATAGAAATTAAAATATAACATGCCATAGAGATTATAATGTAAACAGATATTTGTTTACTTAGCACTTCATTGCAATTTCTTTATATAACAAATCCAATTTACCAACATATTAACGTATGGGTGTATGCAATCATGATTATATTGGTTCTGCTTTTCACTGGGATCGTGGGGAC | 0.574 ratio |
| GTGAGCGGTGCCCATTGATGGGGAACGCCACAGTTCAAGTTCAAAGAGAAACACTCTAGCAACTTCTGAAAGCAGGAACTGTATGCAACTGAAAGTCCACTTCCGGCACAGAAGCCAGAGCAAACAATGAAAAACAAACCGTACCAACTCTGGTACCAGTTACTGACCTTCCAGACCAAGAGAACGTGCTGGCAGCACTGGTGAAATGTACTTGTCTGTTTTCACTGGGATCGTGGGGAC | 0.262 ratio |
| GTGAGCGGTGCCCATTGATGGGGAACGACACCATTTCGAACAAAACAAAACAGTTGCTCCCTTCCCTCTTGTTCCTCCCACTATTGCTGTCATTGCAAGCTCCTAGGAGCTGCCCTGTTATTTACATTGCAGTGGGCATGACTCAGGGAAGCAGCAGGCAGGGAGGAGGATGGGAAGCAAGAACCCAGCTGGGGCTAAGCAAGGTCCAGCTCATAATATTTTCACTGGGATCGTGGGGAC | 0.412 ratio |

Series 3
Target: RNA binding protein fox-1 homolog 2, RRM domain, GST-SBP tag (RBFOX2, Homo sapiens, UniProt O43251-10, residues 100-194)
Method: RNA Bind-n-Seq
Molecule type: RNA
Matrix: in vitro
Tested at: 365 nM
Notes: natural RNA segment, single round, ends assumed
Relative to: no-protein control
Reading: higher = stronger binding
Target sequence (chain): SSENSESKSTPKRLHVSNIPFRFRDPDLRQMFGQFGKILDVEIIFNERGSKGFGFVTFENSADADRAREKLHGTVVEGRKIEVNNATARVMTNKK
| Sequence | RBNS enrichment (R) |
| --- | --- |
| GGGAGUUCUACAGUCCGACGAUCACCCAAGGUGGGCGCCUUCCCCUCUUGUGCCCAGGGCGGUGGGCGUGGUGUCCACCCGCCCCUCCUGGUGCCCACGGUGGAUACUGCAUGAUGUGAACCUUGGUUUUGAAUGGAAUUCUCGGGUGCCAA | 18.8 |
| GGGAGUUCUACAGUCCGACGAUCAAAAAUCUGUAUAUACAGUCUAUGUGUUUAGAAUUUGUGUUGUAAGUAAACUACAGCUUUGAGUUGGAAAGAAGUCACGGGUUGUAAAACCAUUUGGAUUUUUUUAAAACUGGAAUUCUCGGGUGCCAA | 0.499 |
| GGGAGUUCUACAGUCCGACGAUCCUCACACGACUAUUUACAUCAAAUCAGAUAUUAACAAGUGAAUGCUUGAGUUGCCUUGUAGAGCUACUUGAAGACCCCAACAUAAGUGCUUCACUGAUCUUAAGUAUUAUUGGAAUUCUCGGGUGCCAA | 0.446 |
| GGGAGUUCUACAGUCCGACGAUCUCUGAUGUGGCAUUUUCGUCAUCUGAAGCAUGAGUGACAAGUUGGGAAUGAUGUGGUGAUUUAGAAUGCAGUAUUGGCCAAGUCCAAGUUGUCAACUUAAGCGUCUGUUUUGGAAUUCUCGGGUGCCAA | 10.8 |
| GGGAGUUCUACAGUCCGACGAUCAGGAGCCAUAAGCUCUCCUUCAGACGGUGAGGCGGCUCCUGCCUCCUGCUACUGAAAUCUGCAGACAGCAGGGGCGGCUGCCUGGGGGGCUGGGCAGGCUGGGUGCCGGGUGGAAUUCUCGGGUGCCAA | 0.321 |
| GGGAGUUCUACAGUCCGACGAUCCUGUCUUCCAGUACUGAUAGAAGAUGCUCCUGGGCUUCAUUCUGGAUUGUUAAACAGUAGAAAUGCAUGUCCUUCCCCAGUAAGCGGAGGACCAAUUUCUCAAGUCUCAGUGGAAUUCUCGGGUGCCAA | 0.512 |

Series 4
Target: RING finger protein unkempt homolog, zinc fingers 1-6, GST-SBP tag (UNK, Homo sapiens, UniProt Q9C0B0, residues 30-357)
Chain of UniProt Q9C0B0 (30-357, looked up): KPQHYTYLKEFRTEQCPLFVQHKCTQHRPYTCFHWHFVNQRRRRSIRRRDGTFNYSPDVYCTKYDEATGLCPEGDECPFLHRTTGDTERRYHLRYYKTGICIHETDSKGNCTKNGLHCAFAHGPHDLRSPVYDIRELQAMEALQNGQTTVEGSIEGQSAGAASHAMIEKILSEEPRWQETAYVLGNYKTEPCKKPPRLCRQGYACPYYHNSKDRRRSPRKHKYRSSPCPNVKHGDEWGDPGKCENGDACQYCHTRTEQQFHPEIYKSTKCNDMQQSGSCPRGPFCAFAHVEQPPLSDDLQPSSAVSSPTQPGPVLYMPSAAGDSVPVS
Method: RNA Bind-n-Seq
Molecule type: RNA
Matrix: in vitro
Tested at: not given
Notes: RNA with constant flanks, human and mouse sites, ends assumed
Relative to: input RNA pool
Reading: higher = stronger binding
| Sequence | bound/input enrichment [ratio] |
| --- | --- |
| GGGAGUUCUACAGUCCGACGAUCAGUAGAAUUUUCCAGUGUUGUGCUUGGAAUGGUGGAGUGUUCUGGUUCAGUCUCCUCUUGUUUUAUCGAGUAUUUAUUCCUGUGCUUCAGUCGGUAACAGCCCGAAUUAUCGGUGACCCACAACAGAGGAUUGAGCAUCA | 0.417 |
| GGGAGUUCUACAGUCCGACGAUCCUUUUUUUAAAAAAAACAUUUCACCACCCACCAUCACCCCAAUCCAACCCACACCGAACCCUCGCGCACCCCAACCCCCAACAACAAACAACAACAACAACAACUGCAAAACAGAAAACACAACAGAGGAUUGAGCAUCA | 0.53 |
| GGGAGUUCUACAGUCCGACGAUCCAAAACUUUGAAAACAUUCAGCUGUCAAAAGCUAUGGAAAUUCUUAGAAAUAACACACAUUUAUCUAUCACUGUGAAAACCAAUUUAUUUGUAUUUAAAGAACUUCUAACAAGAUUGUCACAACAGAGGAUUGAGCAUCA | 0.761 |
| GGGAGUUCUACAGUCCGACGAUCUUGGGGUAACGUGCACUGUAAGACGUAUGUAACAUGAUGUUAACUUUGUGGUCUAAAGUGUUUAGCUGUCAAGCCGGAUGCCUAAGUAGACCAAAUCUUGUUAUUGAAGUGUUCUGAGCUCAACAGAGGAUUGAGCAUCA | 0.138 |
| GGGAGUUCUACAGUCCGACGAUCCUUAUGAUAAUUACCCCGCGGUGGUGUGUAGAAAAGUAUGUAAAUUUGCUCUGUUUUAAGACUUUGAACUACCUCAAGAAGAGGAAUCUAAUACAAUAUUUGUAAUGUUUCCAGAGCUCUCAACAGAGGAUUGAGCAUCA | 0.801 |
| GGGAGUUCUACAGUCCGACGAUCUAUGCAUUUAUAUAACUGUUUUGUUAUUUGAAUCUUGGAAAACUAGUUUUAUUAUAUUCAGAUAGCCUUGUUUUUUAAAAAGGCCUUUGCAUACACCUUUAUGAGAUAGUGUAAAAUUGACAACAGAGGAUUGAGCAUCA | 30.9 |
| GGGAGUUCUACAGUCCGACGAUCGCACAGAUUCAUCAGUUCAGAGAGGAUUCAUUGGAUAGUGUUCUUUUUCUCAAAAAGAUCGAUAGAUGCUGGCAAAACCACUGUAGGCAAAUGAUAAUGAUCAGGAGCAUUUUUUUGUUUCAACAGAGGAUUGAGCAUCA | 0.245 |
| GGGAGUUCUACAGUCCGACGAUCAUAGAUAAAUGCAGACAGCAGCUGCACGAUAUCACGGUGCCUCUGGAAGUUUUUGAAUACAUUGAUCAAGGUCGGAAUCCCCAGCUCUACACCAAAGAAUGCCUGGAGAGGGCUCUAGCUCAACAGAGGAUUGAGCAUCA | 0.184 |
